Measured values gathered from unrelated publications.
Lines come from different studies, so protocols differ.

| Structure (SMILES) | organism | assay | test system | setting | MIC |
| --- | --- | --- | --- | --- | --- |
| Cc1ccc(Cn2ccc([C@H](C)[C@](O)(Cn3cnnn3)c3ccc(F)cc3F)n2)cc1 | Aspergillus fumigatus | growth, broth microdilution | 7544 | 48 h, 35 °C, ≥50% inhibition | > 64 mg/L |
| COc1cccc(C2Nc3ccccc3C3=[O+][Cu-2]4([Cl])[O]c5c(cccc5OC)C=[N+]4N32)c1O (stereo not drawn) | Mycolicibacterium smegmatis | broth microdilution | ATCC 700084 | 3 days | 64 mg/L |
| C[C@@H](c1ccn(Cc2ccc(C#N)cc2)n1)[C@](O)(Cn1cnnn1)c1ccc(F)cc1F | Aspergillus fumigatus | growth, broth microdilution | 7544 | 48 h, 35 °C, ≥50% inhibition | > 64 mg/L |
| CC[C@@H](C)[C@@H](NC(=O)[C@@H](C)NC(=O)[C@@H](CCCCN)NC(=O)[C@@H](CC(C)C)NC(=O)[C@@H](CC(C)C)NC(=O)[C@H](NC(=O)[C@@H](CCCCN)NC(=O)[C@@H](CC(C)C)NC(=O)[C@@H](C)NC(=O)[C@@H](CCCCN)NC(=O)[C@@H](CCCCN)NC(=O)[C@@H](CCCCN)NC(=O)[C@@H](C)NC(=O)[C@@H](CCCCN)NC(=O)[C@@H](CO)NC(=O)[C@@H](Cc1ccccc1)NC(=O)[C@H](NC(=O)[C@@H](CCCCN)NC(=O)[C@@H](CC(C)C)NC(=O)[C@@H](Cc1ccccc1)NC(=O)[C@@H](CO)NC(=O)[C@@H](CCCCN)NC(=O)[C@@H](Cc1c[nH]c2ccccc12)NC(=O)[C@@H](CCCCN)NC(C)=O)[C@H](C)O)[C@H](C)O)C(=O)N[C@H](CO)C(=O)N[C@H](CCCCN)C(N)=O | Acinetobacter baumannii |  | 821, Mueller-Hinton broth | 24 h, 37 °C | 0.7 µM |
| Oc1c(Br)c(Cl)c(Br)c2nc3c(C(F)(F)F)cc(C(F)(F)F)cc3nc12 | Staphylococcus epidermidis | microbial growth, broth dilution | 12228 |  | 1.56 µM |
| CC[C@@H](C)[C@@H](NC(=O)[C@@H](C)NC(=O)[C@@H](CCCCN)NC(=O)[C@@H](CC(C)C)NC(=O)[C@@H](C)NC(=O)[C@H](NC(=O)[C@@H](Cc1c[nH]cn1)NC(=O)[C@@H](CC(C)C)NC(=O)[C@H](NC(=O)[C@H](NC(=O)[C@@H](CCCCN)NC(=O)[C@H](NC(=O)[C@@H](C)NC(=O)[C@@H](CO)NC(=O)[C@@H](CCCCN)NC(=O)[C@@H](Cc1ccccc1)NC(=O)[C@H](NC(=O)[C@@H](CCCCN)NC(=O)[C@@H](CC(C)C)NC(=O)[C@@H](Cc1ccccc1)NC(=O)[C@@H](CO)NC(=O)[C@@H](CCCCN)NC(=O)[C@@H](Cc1c[nH]c2ccccc12)NC(=O)[C@@H](CCCCN)NC(C)=O)[C@H](C)O)C(C)C)[C@H](C)O)C(C)C)[C@H](C)O)C(=O)N[C@H](CO)C(=O)N[C@H](CO)C(N)=O | Acinetobacter baumannii |  | 985, Mueller-Hinton broth | 24 h, 37 °C | 0.7 µM |
| N#Cc1ccc2cccc(O)c2n1 | Morganella morganii | microbial growth, agar dilution |  |  | > 1500 µM |
| CC(=O)N[C@H](CCCCN)C(=O)N[C@H](CC(C)C)C(=O)N[C@H](CCCCN)C(=O)N[C@H](CO)C(=O)N[C@H](CC(C)C)C(=O)N[C@H](CC(C)C)C(=O)N[C@H](CCCCN)C(=O)N[C@@H](C(=O)N[C@H](CC(C)C)C(=O)N[C@H](CO)C(=O)N[C@H](CCCCN)C(=O)N[C@H](C)C(=O)N[C@H](CCCCN)C(=O)N[C@H](CCCCN)C(=O)N[C@H](CCCCN)C(=O)N[C@H](CC(C)C)C(=O)N[C@H](CC(C)C)C(=O)N[C@H](CCCCN)C(=O)N[C@@H](C(=O)N[C@H](C)C(=O)N[C@H](CC(C)C)C(=O)N[C@H](CCCCN)C(=O)N[C@H](C)C(=O)N[C@H](CC(C)C)C(=O)N[C@H](CO)C(=O)N[C@H](CCCCN)C(N)=O)[C@H](C)O)[C@H](C)O | Acinetobacter baumannii |  | 899, Mueller-Hinton broth | 24 h, 37 °C | 0.7 µM |
| Oc1c(Br)cc(Br)c2nc3cc(C(F)(F)F)ccc3nc12 | Staphylococcus epidermidis | broth microdilution | MRSE 35984 | single representative determination | 0.1 µM |
| O=c1c2ccccc2sn1-c1cc(Br)cc(Br)c1 | Aspergillus terreus | growth, broth dilution | ATCC MYA-3633 | MIC-0 | 12.5 mg/L |
| COc1ccc2c(c1CC=C(C)C)O[C@H]1c3cc(CC=C(C)C)c(O)cc3OC[C@@H]21 | Shigella flexneri |  | DMST 4423 |  | 128 mg/L |
| CCCCCCCCCC1CC2CCC3CC(CCCCCCCCC)NC(=N1)N23 (stereo not drawn) | Aspergillus fumigatus | fungal growth | ATCC 204305 |  | 12 µM |
| C[C@@H](c1ccn(Cc2cccc(Cl)c2F)n1)[C@](O)(Cn1cnnn1)c1ccc(F)cc1F | Aspergillus fumigatus | growth, broth microdilution | 7544 | 48 h, 35 °C, ≥50% inhibition | > 64 mg/L |
| COc1c(CC=C(C)C)c(O)cc2c1-c1oc3c(CC=C(C)C)c(O)ccc3c1CO2 | Shigella flexneri |  | DMST 4423 |  | inactive |
| C[C@@H](c1ccn(Cc2cccc(C(F)(F)F)c2)n1)[C@](O)(Cn1cnnn1)c1ccc(F)cc1F | Aspergillus fumigatus | growth, broth microdilution | 7544 | 48 h, 35 °C, ≥50% inhibition | > 64 mg/L |
| Oc1c(Br)cc(Br)c2nc3c(C(F)(F)F)cc(C(F)(F)F)cc3nc12 | Staphylococcus epidermidis | broth microdilution | MRSE 35984 | single representative determination | 0.1 µM |
| C[C@@H](c1ccn(Cc2ccc(F)cc2)n1)[C@](O)(Cn1cnnn1)c1ccc(F)cc1F | Aspergillus fumigatus | growth, broth microdilution | 7544 | 48 h, 35 °C, ≥50% inhibition | > 64 mg/L |
| COc1c2c(cc3c1[C@@H]1Oc4c(ccc(O)c4CC=C(C)C)[C@@H]1CO3)OC(C)(C)C=C2 | Shigella flexneri |  | DMST 4423 |  | inactive |
| Oc1c(Br)cc(Br)c2nc3cc(I)ccc3nc12 | Staphylococcus epidermidis | broth microdilution | MRSE 35984 |  | 0.15 µM |
| C[C@@H](c1ccn(Cc2ccc(I)cc2)n1)[C@](O)(Cn1cnnn1)c1ccc(F)cc1F | Aspergillus fumigatus | growth, broth microdilution | 7544 | 48 h, 35 °C, ≥50% inhibition | > 64 mg/L |
| Oc1c(Br)ccc2cccnc12 | Serratia marcescens | microbial growth, agar dilution | ATCC8100 |  | 35.7 µM |
| COc1c(NC(=O)c2ccc(NC(=O)c3ccc(NC(=O)[C@H](CC#N)NC(=O)c4ccc(NC(=O)/C(C)=C/c5ccc(O)cc5)cc4)cc3)c(OC)c2O)ccc(C(=O)O)c1O | Serratia marcescens | microbial growth | DSM30121 |  | > 64 mg/L |
| CCCCCCn1ccc([C@H](C)[C@](O)(Cn2cnnn2)c2ccc(F)cc2F)n1 | Aspergillus fumigatus | growth, broth microdilution | 7544 | 48 h, 35 °C, ≥50% inhibition | > 64 mg/L |
| COc1ccc2c3c(oc2c1CC=C(C)C)-c1cc(CC=C(C)C)c(O)cc1OC3 | Shigella flexneri |  | DMST 4423 |  | inactive |

Some of these lines once more:
| Structure (SMILES) | organism | assay | test system | setting | MIC |
| --- | --- | --- | --- | --- | --- |
| CC(=O)N[C@H](CCCCN)C(=O)N[C@H](CC(C)C)C(=O)N[C@H](CCCCN)C(=O)N[C@H](CO)C(=O)N[C@H](CC(C)C)C(=O)N[C@H](CC(C)C)C(=O)N[C@H](CCCCN)C(=O)N[C@@H](C(=O)N[C@H](CC(C)C)C(=O)N[C@H](CO)C(=O)N[C@H](CCCCN)C(=O)N[C@H](C)C(=O)N[C@H](CCCCN)C(=O)N[C@H](CCCCN)C(=O)N[C@H](CCCCN)C(=O)N[C@H](CC(C)C)C(=O)N[C@H](CC(C)C)C(=O)N[C@H](CCCCN)C(=O)N[C@@H](C(=O)N[C@H](C)C(=O)N[C@H](CC(C)C)C(=O)N[C@H](CCCCN)C(=O)N[C@H](C)C(=O)N[C@H](CC(C)C)C(=O)N[C@H](CO)C(=O)N[C@H](CCCCN)C(N)=O)[C@H](C)O)[C@H](C)O | Acinetobacter baumannii |  | 899, Mueller-Hinton broth | 24 h, 37 °C | 0.7 µM |
| Oc1c(Br)cc(Br)c2nc3cc(C(F)(F)F)ccc3nc12 | Staphylococcus epidermidis | broth microdilution | MRSE 35984 | single representative determination | 0.1 µM |
| O=c1c2ccccc2sn1-c1cc(Br)cc(Br)c1 | Aspergillus terreus | growth, broth dilution | ATCC MYA-3633 | MIC-0 | 12.5 mg/L |
| COc1ccc2c(c1CC=C(C)C)O[C@H]1c3cc(CC=C(C)C)c(O)cc3OC[C@@H]21 | Shigella flexneri |  | DMST 4423 |  | 128 mg/L |
